# Values quoted from earlier work that unrelated publications cite.
# Each line is one published result; not all experiments were run side by side. ± marks the error that the study gave.
Substance,target or system,test,system,setting,endpoint,result
Cc1cc(-c2nccc3c2ccn3CC(=O)Nc2ccc(-c3cnccn3)cn2)ccn1,,,"rat, bone marrow",in vivo genotoxicity,micronucleus test result,negative
Fc1ccccc1Cc1nc(-c2nc(C(F)(F)F)n[nH]2)cn2ccnc12,,equilibrium dialysis,monkey plasma,1 and 10 µM,plasma protein binding,98.7%
CCC(CC)COC(=O)[C@H](C)N[P@](=O)(OC[C@H]1O[C@@](C#N)(c2ccc3c(N)ncnn23)[C@H](O)[C@@H]1O)Oc1ccccc1,SARS-CoV-2,viral replication,Caco-2,,EC50,0.03 ± 0.01 µM
CC1COc2ccccc2N1C(=O)C(Cl)Cl (centres unmarked),cytosolic glutathione S-transferase,,"rat, female, liver cytosol",,intrinsic clearance,0.3 mL/min/mg protein
O=[N+]([O-])c1ccc(O[C@H]2O[C@H](CO)[C@@H](O)[C@H](O)[C@@H]2O)cc1,"Beta-mannosidase (Bacteroides thetaiotaomicron, UniProt Q8AAK6)",substrate,,,Km,190 µM
CCN(CCO)CCCC(C)Nc1ccnc2cc(Cl)ccc12 (centres unmarked),MERS-CoV,"viral replication, ELISA",Vero E6,,EC50,8.28 µM
CO/N=C(\C(=O)N[C@@H]1C(=O)N2C(C(=O)O)=C(COC(C)=O)CS[C@H]12)c1csc(N)n1,Pseudomonas aeruginosa,,clinical isolate RKI-No_321/16,,MIC,> 16 µg/mL
M2 transmembrane peptide (Influenza A virus),,"solid-state NMR, item: His37",virus-mimetic membrane with cholesterol,"membrane-bound tetramer, macroscopic, third protonation",pKa,4.9

# For quick reference, copied from above:
Substance,target or system,test,system,setting,endpoint,result
CCC(CC)COC(=O)[C@H](C)N[P@](=O)(OC[C@H]1O[C@@](C#N)(c2ccc3c(N)ncnn23)[C@H](O)[C@@H]1O)Oc1ccccc1,SARS-CoV-2,viral replication,Caco-2,,EC50,0.03 ± 0.01 µM
